Results of several laboratories.
A part holds a random share of what one study measured. Substitutions count along the parent as printed.
Sequence of UniProt Q9C5W9 (whole entry, looked up): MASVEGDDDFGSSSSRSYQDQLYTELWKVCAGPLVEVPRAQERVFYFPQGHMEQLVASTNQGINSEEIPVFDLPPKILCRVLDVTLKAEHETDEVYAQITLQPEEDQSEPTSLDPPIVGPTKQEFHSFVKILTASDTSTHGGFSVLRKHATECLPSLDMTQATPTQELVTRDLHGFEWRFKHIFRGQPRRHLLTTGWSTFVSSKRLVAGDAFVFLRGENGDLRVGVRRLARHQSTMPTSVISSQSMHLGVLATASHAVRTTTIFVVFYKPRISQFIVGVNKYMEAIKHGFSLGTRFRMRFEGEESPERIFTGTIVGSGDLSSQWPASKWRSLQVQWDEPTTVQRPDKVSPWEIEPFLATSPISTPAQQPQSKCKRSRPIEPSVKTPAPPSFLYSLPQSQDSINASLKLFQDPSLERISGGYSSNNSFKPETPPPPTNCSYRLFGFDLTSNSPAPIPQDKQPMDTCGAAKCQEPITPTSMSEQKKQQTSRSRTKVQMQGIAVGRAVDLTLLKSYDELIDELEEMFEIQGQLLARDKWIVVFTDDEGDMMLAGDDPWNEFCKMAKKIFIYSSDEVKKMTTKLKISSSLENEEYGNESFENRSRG
Sequence of UniProt Q84WU6 (whole entry, looked up): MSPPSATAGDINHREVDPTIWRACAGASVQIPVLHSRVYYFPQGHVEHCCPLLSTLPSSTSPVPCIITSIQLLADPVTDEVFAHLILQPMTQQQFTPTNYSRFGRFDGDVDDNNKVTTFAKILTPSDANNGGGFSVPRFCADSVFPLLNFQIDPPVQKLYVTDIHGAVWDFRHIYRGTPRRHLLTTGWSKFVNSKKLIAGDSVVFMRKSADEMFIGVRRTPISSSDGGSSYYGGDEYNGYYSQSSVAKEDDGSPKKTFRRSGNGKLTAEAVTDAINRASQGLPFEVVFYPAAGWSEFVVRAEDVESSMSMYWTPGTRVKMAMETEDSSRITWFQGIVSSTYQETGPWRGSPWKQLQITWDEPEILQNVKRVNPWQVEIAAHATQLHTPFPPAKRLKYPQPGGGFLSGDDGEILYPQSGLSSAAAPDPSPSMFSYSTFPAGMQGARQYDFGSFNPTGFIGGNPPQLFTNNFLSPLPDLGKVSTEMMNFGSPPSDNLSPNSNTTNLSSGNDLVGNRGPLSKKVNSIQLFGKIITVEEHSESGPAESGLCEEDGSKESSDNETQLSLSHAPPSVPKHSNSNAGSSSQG
Sequence of UniProt Q93WC4 (whole entry, looked up): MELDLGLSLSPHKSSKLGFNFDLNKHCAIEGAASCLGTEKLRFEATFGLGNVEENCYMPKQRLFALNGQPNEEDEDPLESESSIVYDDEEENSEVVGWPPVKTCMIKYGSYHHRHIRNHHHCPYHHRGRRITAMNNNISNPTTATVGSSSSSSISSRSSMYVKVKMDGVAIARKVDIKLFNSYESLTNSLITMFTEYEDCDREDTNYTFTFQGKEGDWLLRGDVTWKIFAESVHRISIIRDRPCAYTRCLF
Sequence of UniProt Q9XED8 (whole entry, looked up): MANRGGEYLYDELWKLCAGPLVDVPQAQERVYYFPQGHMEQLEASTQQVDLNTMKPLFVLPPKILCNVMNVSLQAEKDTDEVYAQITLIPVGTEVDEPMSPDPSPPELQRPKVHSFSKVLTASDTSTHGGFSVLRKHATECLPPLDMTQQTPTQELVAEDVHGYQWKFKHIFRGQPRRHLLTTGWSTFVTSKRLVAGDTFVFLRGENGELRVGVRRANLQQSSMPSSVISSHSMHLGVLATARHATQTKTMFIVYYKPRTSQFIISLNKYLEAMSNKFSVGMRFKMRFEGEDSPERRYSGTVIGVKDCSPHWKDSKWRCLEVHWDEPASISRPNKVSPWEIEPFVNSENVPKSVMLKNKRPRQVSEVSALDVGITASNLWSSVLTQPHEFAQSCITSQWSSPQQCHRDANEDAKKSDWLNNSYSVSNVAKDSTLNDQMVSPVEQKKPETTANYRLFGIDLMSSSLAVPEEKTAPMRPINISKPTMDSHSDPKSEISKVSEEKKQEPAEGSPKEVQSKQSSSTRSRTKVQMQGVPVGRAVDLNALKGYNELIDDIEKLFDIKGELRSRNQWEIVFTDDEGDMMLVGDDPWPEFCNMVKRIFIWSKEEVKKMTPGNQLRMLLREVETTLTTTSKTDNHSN
Sequence of UniProt Q8RYC6 (whole entry, looked up): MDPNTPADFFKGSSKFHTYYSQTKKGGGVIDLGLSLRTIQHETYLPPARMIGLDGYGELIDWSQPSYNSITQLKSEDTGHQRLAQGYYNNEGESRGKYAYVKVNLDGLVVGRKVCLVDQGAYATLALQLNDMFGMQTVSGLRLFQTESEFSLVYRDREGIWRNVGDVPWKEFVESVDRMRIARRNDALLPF

Set 1
Target: Ras GTPase-activating protein-binding protein 1, full length (G3BP1, Homo sapiens, UniProt Q13283)
Sequence of UniProt Q13283 (whole entry, looked up): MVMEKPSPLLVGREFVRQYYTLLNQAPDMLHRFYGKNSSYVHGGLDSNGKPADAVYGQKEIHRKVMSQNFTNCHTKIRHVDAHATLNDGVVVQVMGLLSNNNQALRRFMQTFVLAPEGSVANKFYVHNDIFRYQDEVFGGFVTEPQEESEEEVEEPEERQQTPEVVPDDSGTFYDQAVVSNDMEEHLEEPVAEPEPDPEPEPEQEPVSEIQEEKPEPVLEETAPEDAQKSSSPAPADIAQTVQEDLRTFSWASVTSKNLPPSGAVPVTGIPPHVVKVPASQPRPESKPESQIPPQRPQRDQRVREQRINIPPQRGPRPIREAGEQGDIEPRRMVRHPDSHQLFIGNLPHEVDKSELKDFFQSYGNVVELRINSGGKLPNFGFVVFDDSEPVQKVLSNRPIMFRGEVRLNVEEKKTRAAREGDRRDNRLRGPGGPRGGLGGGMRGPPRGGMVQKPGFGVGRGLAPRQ
Technique: RNA Bind-n-Seq
Molecule type: RNA
Matrix: in vitro
Concentration: 200 nM
Notes: whole 134-nt RNA, ends assumed
Together with: 150 mM LiCl
Reference: input library
Direction: higher = stronger binding
Endpoint: log2 enrichment
Library: 7-deaza-guanosine replaces G
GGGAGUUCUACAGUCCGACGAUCGCAGGAAGUAAAAACAAAUGGAAAUGCUUCGGAUAGUGGCAGGGGUGGGGGUUGCUAAGGAAAGGGUGGGAUGGAAAUGGGUAAAGAGUUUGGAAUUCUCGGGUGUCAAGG: 0.224
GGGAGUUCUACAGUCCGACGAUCAAGUCCUGUGCUACACAUCGUAUGUACCGAAUCGGUUUUGGGUUUUGGGUUUUGGGGAAAGUAUUAUGUUACGCCGUUCGGAUCUGCACUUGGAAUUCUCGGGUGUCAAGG: 0.284
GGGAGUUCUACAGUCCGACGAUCUCCUGUGCUACACAUCGUAUGUACCGAAUCGGCCCCCCGGGCCCCCCGGGCCCCCCGGGAAAGUAUUAUGUUACGCCGUUCGGAUCUGCAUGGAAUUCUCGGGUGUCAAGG: -1.39
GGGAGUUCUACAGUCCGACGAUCAAGUCCUGUGCUACACAUCGUAUGUACCGAAUCGGAAAGGAAAAAAAGGAAAAAGGAAAGUAUUAUGUUACGCCGUUCGGAUCUGCACUUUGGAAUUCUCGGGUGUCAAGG: -0.707
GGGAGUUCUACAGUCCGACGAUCGUCCUGUGCUACACAUCGUAUGUACCGAAUCGGGAAAAAGGGAAAAAGGGGAAAAAGGGAAAGUAUUAUGUUACGCCGUUCGGAUCUGCAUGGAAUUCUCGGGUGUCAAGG: -0.0908
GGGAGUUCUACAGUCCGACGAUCUGUGCUACACAUCGUAUGUACCGAAUCGGUUUUUUUGGGGUUUUUUUGGGGUUUUUUUGGGGAAAGUAUUAUGUUACGCCGUUCGGAUCUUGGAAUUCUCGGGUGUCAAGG: 1.82
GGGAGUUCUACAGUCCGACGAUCUGGGAGGUGGAUUUUGUUUAUUUUUUUAGCUCAUUUCCAGGGGUGGGACUUUUUUUUUAAUAUGUGUCAUGAAUAAAGUUGUUUUUGAAAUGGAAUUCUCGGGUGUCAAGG: -0.453
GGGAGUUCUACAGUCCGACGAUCCCUGUGCUACACAUCGUAUGUACCGAAUCGGGAAAAAAAGGGAAAAAAAGGAAAAAAAGGGAAAGUAUUAUGUUACGCCGUUCGGAUCUGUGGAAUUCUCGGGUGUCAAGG: 0.138

Set 2
Sequence: B1 (IAA19)
Technique: two-hybrid
Direction: higher = firmer interaction
Endpoint: positive tests
B1: IAA19 (Arabidopsis thaliana, UniProt O24409); chain MEKEGLGLEITELRLGLPGRDVAEKMMKKRAFTEMNMTSSGSNSDQCESGVVSSGGDAEKVNDSPAAKSQVVGWPPVCSYRKKNSCKEASTTKVGLGYVKVSMDGVPYLRKMDLGSSQGYDDLAFALDKLFGFRGIGVALKDGDNCEYVTIYEDKDGDWMLAGDVPWGMFLESCKRLRIMKRSDATGFGLQPRGVDE
ARF9 519-638 (Arabidopsis thaliana, UniProt Q9XED8); weak activation fusion; reference: out of 2 tests: 0
ARF18 482-602 (Arabidopsis thaliana, UniProt Q9C5W9); reference: out of 2 tests: 0
ARF17 (Arabidopsis thaliana, UniProt Q84WU6); weak activation fusion; reference: out of 3 tests: 0
IAA32 (Arabidopsis thaliana, UniProt Q8RYC6); reference: out of 4 tests: 0
IAA29 (Arabidopsis thaliana, UniProt Q93WC4); reference: out of 4 tests: 0

Set 3
Target: ABI1, truncated, D143A, DHFR fusion (Arabidopsis thaliana)
Technique: DHFR PCA, deep sequencing
Matrix: yeast
Notes: methotrexate growth selection, single substitutions
Together with: (+)-ABA 710 µM
Reference: wild-type fitted maximum
Direction: higher = stronger binding
Endpoint: relative binding score
Starting sequence: PYL1, truncated, DHFR fusion (Arabidopsis thaliana); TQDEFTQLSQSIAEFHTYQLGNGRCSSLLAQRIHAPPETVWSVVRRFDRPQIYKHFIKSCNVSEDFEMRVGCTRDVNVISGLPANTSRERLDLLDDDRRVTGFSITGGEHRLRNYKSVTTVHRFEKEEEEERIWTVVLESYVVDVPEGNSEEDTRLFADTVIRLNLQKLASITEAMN
T106E: 103%
F5S: 102%
F15H: 101%
F103W: 83.4%
G102P: 4.98%
Y115R: -9.06%
I105R: -5.48%
E131D: 107%
T173W: 85.9%
S80I: 14.3%
L20W: 94.4%

Set 4
Target: CCND2, cyclin fold, Cln2 fusion (human)
Technique: yeast growth competition, sequencing
Matrix: yeast
Notes: weak parent motif
Reference: not given
Direction: higher = stronger binding
Endpoint: normalised enrichment score
Starting sequence: PKN2 docking peptide (human); VSAVQKLDFSDTM; partner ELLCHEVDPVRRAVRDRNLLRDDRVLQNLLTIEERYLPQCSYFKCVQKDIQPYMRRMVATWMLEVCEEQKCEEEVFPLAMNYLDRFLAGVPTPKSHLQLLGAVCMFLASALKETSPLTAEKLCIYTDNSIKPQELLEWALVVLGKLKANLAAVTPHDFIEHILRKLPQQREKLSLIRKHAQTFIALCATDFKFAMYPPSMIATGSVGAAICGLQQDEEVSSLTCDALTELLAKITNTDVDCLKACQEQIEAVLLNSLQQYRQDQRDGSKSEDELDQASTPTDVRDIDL
V1S: 0.714
F9K: 0.0768
A3R: 0.0928
L7G: -0.275
L7R: -0.27
M13R: 0.719
S2N: 0.356
V4M: 0.013
A3H: 0.159
M13S: 0.851
K6E: 0.0339
K6C: 0.315
V1W: 0.802
T12S: 0.801
A3M: 0.165
S10T: 0.53
D8S: 0.305

A few entries again (set 3):
F5S: 102%
F15H: 101%
F103W: 83.4%
G102P: 4.98%
Y115R: -9.06%
I105R: -5.48%
